Published values pooled from the literature.
± marks the error that the study gave. Square brackets hold non-standard residues; d marks the D form. Where no end group is shown, it is not given here. Ends that are not written are not given here. No end group written: not given here. The star is where a group is joined. * marks the point of attachment.
HapB/HapC/HapE/HapX HapX 24-158: HapB/HapC/HapE/HapX HapX 24-158 (Aspergillus fumigatus)
DAXX: DAXX 55-144 (Homo sapiens, UniProt Q9UER7)
UniProt Q9UER7, sequence (whole entry, looked up): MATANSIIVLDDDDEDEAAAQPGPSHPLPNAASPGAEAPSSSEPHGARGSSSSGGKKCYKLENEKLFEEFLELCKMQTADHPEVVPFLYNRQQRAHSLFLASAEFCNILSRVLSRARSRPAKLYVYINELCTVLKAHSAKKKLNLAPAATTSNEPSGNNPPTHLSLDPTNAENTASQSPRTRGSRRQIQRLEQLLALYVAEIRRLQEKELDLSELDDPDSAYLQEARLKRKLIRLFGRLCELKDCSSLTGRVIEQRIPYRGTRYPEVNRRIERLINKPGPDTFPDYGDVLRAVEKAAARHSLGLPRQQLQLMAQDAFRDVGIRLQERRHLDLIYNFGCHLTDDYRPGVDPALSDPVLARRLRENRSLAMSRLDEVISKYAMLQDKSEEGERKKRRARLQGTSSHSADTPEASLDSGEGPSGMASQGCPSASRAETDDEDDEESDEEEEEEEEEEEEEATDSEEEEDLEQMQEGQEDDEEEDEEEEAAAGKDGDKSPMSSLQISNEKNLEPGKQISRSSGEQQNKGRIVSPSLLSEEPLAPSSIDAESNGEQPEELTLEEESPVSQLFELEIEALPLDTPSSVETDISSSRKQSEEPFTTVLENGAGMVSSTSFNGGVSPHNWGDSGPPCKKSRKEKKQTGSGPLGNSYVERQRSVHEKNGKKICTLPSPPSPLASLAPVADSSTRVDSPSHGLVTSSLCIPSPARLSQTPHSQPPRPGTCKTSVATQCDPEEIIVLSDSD
B1: acrA (Escherichia coli, UniProt P0AE06); N-terminal lipid at C25; chain CDDKQAQQGGQQMPAVGVVTVKTEPLQITTELPGRTSAYRIAEVRPQVSGIILKRNFKEGSDIEAGVSLYQIDPATYQATYDSAKGDLAKAQAAANIAQLTVNRYQKLLGTQYISKQEYDQALADAQQANAAVTAAKAAVETARINLAYTKVTSPISGRIGKSNVTEGALVQNGQATALATVQQLDPIYVDVTQSSNDFLRLKQELANGTLKQENGKAKVSLITSDGIKFPQDGTLEFSDVTVDQTTGSITLRAIFPNPDHTLLPGMFVRARLEEGLNPNAILVPQQGVTRTPRGDATVLVVGADDKVETRPIVASQAIGDKWLVTEGLKAGDRVVISGLQKVRPGVQVKAQEVTADNNQQAASGAQPEQSKS
UniProt P00520, sequence (whole entry, looked up): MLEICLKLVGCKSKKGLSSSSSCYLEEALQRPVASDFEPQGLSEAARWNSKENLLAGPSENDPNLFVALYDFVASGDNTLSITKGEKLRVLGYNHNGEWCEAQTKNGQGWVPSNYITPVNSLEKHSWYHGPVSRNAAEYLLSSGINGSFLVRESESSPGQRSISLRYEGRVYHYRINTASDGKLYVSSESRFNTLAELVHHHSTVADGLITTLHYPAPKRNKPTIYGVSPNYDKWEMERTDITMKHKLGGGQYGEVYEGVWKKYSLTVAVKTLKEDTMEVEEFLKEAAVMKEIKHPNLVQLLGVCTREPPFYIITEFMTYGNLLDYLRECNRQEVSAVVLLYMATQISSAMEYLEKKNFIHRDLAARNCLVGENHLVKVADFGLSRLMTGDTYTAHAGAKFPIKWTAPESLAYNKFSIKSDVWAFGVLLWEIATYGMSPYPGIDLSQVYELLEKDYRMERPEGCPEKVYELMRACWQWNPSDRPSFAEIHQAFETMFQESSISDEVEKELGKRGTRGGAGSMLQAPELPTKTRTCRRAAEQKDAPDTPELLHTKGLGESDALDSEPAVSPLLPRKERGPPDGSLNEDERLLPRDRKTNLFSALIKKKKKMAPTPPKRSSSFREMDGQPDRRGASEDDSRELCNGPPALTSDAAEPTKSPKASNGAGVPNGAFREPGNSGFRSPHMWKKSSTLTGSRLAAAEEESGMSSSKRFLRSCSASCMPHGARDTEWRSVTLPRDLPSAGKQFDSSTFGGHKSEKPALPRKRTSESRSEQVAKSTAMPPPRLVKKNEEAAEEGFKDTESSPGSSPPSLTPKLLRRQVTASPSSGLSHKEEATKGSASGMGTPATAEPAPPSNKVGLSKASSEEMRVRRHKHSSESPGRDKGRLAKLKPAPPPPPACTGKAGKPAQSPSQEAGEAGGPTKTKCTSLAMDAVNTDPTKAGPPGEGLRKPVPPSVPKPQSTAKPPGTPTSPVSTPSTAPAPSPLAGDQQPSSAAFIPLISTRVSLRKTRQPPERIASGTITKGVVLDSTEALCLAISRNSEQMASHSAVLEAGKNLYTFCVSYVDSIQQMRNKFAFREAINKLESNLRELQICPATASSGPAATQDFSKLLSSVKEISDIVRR
UniProt P29590, sequence (whole entry, unmodified, looked up): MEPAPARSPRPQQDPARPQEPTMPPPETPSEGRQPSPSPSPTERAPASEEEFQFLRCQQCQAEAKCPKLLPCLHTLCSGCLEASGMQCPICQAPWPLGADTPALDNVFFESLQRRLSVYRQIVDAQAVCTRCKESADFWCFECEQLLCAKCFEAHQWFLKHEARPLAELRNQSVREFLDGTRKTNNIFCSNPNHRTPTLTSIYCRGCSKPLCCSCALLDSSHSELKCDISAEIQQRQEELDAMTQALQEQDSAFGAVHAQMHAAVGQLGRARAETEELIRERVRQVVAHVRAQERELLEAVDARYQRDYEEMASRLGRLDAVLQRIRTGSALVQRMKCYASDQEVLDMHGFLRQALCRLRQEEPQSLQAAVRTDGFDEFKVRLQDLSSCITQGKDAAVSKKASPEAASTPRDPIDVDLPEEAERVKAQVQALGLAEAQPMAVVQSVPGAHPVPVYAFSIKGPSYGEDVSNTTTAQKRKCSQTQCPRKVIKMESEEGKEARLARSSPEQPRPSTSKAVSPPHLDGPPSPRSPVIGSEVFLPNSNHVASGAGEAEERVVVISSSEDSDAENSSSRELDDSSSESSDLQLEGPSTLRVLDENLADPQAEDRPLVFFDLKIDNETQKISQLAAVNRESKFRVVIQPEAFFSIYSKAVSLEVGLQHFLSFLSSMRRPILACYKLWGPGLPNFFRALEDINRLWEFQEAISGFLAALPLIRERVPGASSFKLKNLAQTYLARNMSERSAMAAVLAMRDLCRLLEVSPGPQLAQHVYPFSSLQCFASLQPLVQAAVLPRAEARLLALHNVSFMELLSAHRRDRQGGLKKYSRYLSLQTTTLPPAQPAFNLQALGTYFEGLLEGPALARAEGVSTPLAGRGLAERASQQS
UniProt O00522, sequence (whole entry, looked up): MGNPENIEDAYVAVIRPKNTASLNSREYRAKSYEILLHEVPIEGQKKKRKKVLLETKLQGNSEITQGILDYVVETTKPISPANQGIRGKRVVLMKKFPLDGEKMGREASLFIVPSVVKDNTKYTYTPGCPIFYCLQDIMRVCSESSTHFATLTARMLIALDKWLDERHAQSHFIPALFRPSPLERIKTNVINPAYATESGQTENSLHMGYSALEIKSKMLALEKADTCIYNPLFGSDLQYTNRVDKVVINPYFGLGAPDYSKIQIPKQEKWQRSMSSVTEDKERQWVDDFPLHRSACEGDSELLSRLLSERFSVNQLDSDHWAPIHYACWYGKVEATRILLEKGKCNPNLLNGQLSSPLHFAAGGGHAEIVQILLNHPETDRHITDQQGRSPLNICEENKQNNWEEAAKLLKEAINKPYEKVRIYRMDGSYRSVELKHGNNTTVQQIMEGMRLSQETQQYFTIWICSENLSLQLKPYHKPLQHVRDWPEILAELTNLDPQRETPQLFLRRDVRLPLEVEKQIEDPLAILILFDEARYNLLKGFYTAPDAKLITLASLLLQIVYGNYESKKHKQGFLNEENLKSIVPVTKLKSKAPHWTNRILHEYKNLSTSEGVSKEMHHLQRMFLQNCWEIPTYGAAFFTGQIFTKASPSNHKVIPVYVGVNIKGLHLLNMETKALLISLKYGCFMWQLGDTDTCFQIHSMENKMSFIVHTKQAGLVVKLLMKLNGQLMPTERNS
UniProt Q92547, sequence (whole entry, unmodified, looked up): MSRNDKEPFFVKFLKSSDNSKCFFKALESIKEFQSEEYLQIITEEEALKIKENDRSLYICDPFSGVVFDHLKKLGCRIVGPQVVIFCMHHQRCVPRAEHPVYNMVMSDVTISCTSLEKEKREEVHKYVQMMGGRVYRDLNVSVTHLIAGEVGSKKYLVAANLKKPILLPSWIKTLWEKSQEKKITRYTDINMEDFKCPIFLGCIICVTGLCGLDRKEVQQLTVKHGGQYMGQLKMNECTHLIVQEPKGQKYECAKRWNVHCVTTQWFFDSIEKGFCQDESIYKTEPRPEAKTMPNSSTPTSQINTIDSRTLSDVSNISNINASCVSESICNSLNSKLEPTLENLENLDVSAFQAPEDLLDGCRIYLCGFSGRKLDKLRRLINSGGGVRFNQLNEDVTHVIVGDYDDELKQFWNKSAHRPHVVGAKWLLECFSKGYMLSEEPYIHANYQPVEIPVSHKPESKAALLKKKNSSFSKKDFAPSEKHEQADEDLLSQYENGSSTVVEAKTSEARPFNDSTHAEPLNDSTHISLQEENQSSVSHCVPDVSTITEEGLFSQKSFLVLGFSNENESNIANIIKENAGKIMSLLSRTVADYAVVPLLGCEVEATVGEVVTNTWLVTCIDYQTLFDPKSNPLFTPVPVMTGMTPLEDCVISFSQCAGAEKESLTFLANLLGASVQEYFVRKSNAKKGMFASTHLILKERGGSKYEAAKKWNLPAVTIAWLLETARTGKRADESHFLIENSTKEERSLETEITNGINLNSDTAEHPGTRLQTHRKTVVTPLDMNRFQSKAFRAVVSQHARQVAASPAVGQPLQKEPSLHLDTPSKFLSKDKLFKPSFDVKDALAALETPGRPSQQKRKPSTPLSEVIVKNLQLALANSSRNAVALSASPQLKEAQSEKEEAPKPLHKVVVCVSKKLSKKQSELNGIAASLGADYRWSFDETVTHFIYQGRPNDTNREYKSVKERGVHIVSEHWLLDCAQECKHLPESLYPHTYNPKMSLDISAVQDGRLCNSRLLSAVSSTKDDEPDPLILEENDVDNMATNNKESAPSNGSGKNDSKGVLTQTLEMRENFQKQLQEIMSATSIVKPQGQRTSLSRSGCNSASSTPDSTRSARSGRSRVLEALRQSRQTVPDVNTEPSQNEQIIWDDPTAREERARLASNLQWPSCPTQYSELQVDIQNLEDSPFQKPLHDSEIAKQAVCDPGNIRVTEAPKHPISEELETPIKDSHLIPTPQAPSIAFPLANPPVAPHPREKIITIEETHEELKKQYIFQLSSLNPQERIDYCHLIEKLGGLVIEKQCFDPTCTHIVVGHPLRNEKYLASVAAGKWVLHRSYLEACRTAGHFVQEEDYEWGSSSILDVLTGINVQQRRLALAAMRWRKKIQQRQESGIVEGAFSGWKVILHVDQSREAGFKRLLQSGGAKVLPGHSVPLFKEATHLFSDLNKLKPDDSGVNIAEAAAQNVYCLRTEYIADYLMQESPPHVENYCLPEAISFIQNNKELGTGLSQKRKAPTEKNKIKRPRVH

EPGP[pY]AQPSVNTP (Crk residues 217-229; pY221; pY = N[C@@H](Cc1ccc(OP(=O)(O)O)cc1)C(=O)O)  Kd (Abl1 120-220 (Mus musculus, UniProt P00520); NMR titration; peptide; 25 °C): 69000 nM
B1 (acrA)  k1 (acrB C493S/C887S/S1043C (Escherichia coli, UniProt P31224); SPR; two-state model, association): 23900 M⁻¹ s⁻¹
TTACCAGCCAATCACATGCTGTGTATTAGCAGCCACC (dsDNA)  Kd (HapB/HapC/HapE/HapX HapX 24-158; SPR; double-stranded DNA, one strand shown; HapX on preformed CBC:DNA): < 100 nM
melittin  heat capacity change (membrane partitioning, ITC enthalpy vs temperature; POPC/POPG LUVs 100:0%; concentration not given, 25 to 60 °C): -0.61 kcal/mol/K
fluorescein-YSSAS[pT]FLSP-NH2 (IRAK1 residues 137-145 (Homo sapiens, UniProt P51617); also: fluorescein: FITC or 5,6-FAM; pT141, C-terminal amide, N-terminal fluorescein; pT = C[C@@H](OP(=O)(O)O)[C@H](N)C(=O)O)  Kd (Peli1 2-287 (Mus musculus, UniProt Q8C669); fluorescence polarisation; peptide; 25 °C): 1700 nM
NDPENRIAKKMLLEEIKANLSSDEDG (ATRX 1265-1290 (Homo sapiens, UniProt P46100); sequence looked up)  Kd (DAXX; ITC; peptide; pH 7.5, 25 °C): 1230 nM
{FITC}-WLSSDVICI (BLM 230-238 (Homo sapiens, UniProt P54132); N-terminal FITC; FITC = O=C1OC2(c3ccc(O)cc3Oc3cc(O)ccc32)c2ccc(NC(=S)*)cc21; sequence looked up)  Kd (MCM6 708-821 C721S (Homo sapiens, UniProt Q14566); fluorescence polarisation; peptide; pH 6.5, NaCl 50 mM): 83200 ± 3700 nM
DNDPENRIAKKMLLEEIKANLS (ATRX 1264-1285 (Homo sapiens, UniProt P46100); sequence looked up)  Kd (DAXX; ITC; peptide; pH 7.5, 25 °C): 750 nM
ATATACACTACAAGCGACCGATATATTGATGCTTGCTCAAATAAATGTTGAGTAGGGATTCATATATCGGTCGCTTTTTTTGATTTAACAAAAAGGGAAAATGTATAAGGAATATGCATGACTACAGGCATCAGGGAATTCCCTGATTTTACATTATAATGTGATTCTTTTCACAAAAACAAAATGATTTGGTATACAATACGTGTGAAAGGGTTGGTAAATGTGAATGG (dsDNA)  Kd (rex 1-211 (Staphylococcus aureus, UniProt P60386); EMSA; double-stranded DNA, one strand shown; apparent): 270 nM
AAATCCACCAATCAACGCCTCCGTGATTGTCAGCAAT (dsDNA)  Kd (HapB/HapC/HapE/HapX HapX 24-158; SPR; double-stranded DNA, one strand shown; HapX on preformed CBC:DNA): 0.4 nM
{FITC}-GFID[pS]D[pT]DVEEE-NH2 (peptide; N-terminal FITC, pS5, pT7, C-terminal amide; FITC = O=C1OC2(c3ccc(O)cc3Oc3cc(O)ccc32)c2ccc(NC(=S)*)cc21; pS = N[C@@H](COP(=O)(O)O)C(=O)O; pT = C[C@@H](OP(=O)(O)O)[C@H](N)C(=O)O)  Kd (TOPBP1 641-746 K686E/K687E (Homo sapiens, UniProt Q92547); fluorescence polarisation; peptide; pH 7.5, NaCl 150 mM): 130000 ± 20000 nM
MLGMIKNSLFGSVETWPWQVLY (F2L 1-21 plus C-terminal Tyr (Homo sapiens); 125I-Tyr)  Kd (FPR3 (Homo sapiens, UniProt P25089); radioligand binding; peptide, CHO-K1): 11.7 nM
SRHSCIFPGQYNPSFISDESRRRDYF (HEG1 1356-1381 (Homo sapiens, UniProt Q9ULI3); sequence looked up)  Kd (KRIT1 417-736 (Homo sapiens, UniProt O00522); ITC; peptide): 1200 ± 140 nM
DDDDNDPENRIAKKMLLEEIKANLSSDEDG (ATRX 1261-1290 (Homo sapiens, UniProt P46100); sequence looked up)  Kd (DAXX; ITC; peptide; pH 7.5, 25 °C): 240 nM
GSKKPVPIIYANRRTGKAQRM (Podisus maculiventris peptide mature C11A/C18A (Podisus maculiventris, UniProt P55788); sequence looked up)  Kd (lptA 28-158 (Escherichia coli, UniProt P0ADV1); BLI; peptide; 25 °C, steady-state fit): 47 nM
SGAGEAEERVVVIDDDEDDDAENSSSRY (PML 547-573 S560D/S561D/S562D/S565D (Homo sapiens, UniProt P29590))  Kd (SUMO2 2-93 C48A (Homo sapiens, UniProt P61956); ITC; peptide; pH 7.4, 25 °C, NaCl 50 mM, with: ZnSO4 1 mM): 6500 ± 1200 nM
MWPHRVTAAK (peptide; fluorescein)  Kd (MAP1LC3A (Homo sapiens, UniProt Q9H492); fluorescence polarisation; peptide): 1120 ± 356 nM
H-SDQEAK (SUMO1 residues 1-6 (Homo sapiens))  Kd (HERC2 ZZ domain 2702-2755 (Homo sapiens, UniProt O95714); tryptophan fluorescence titration; peptide; pH 6.8, NaCl 150 mM): 8000 nM
PVTVDDDDDDNDPENRIAKKMLLEEIKANL (ATRX 1255-1284 (Homo sapiens, UniProt P46100); sequence looked up)  Kd (DAXX; ITC; peptide; pH 7.5, 25 °C): 390 nM
UUUUUUUUUUUUUUUU (ssRNA)  Kd (hfq S39W (Listeria monocytogenes, UniProt B8DG33); fluorescence polarization): 2.7 nM
RRRAV[pS]MDNSN (FOXO3 248-258 (human); pS253; pS = N[C@@H](COP(=O)(O)O)C(=O)O)  Kd (YWHAE (Homo sapiens, UniProt P62258); ITC; peptide; pH 7.5): 6700 ± 1800 nM
{FITC}-SPGKLLVKMPF-NH2 (MECP2 peptide residues 216-226 (Homo sapiens); N-terminal FITC, C-terminal amide; FITC = O=C1OC2(c3ccc(O)cc3Oc3cc(O)ccc32)c2ccc(NC(=S)*)cc21)  Kd (DNMT3A 476-614 D529A/D530A/D531A (Homo sapiens, UniProt Q9Y6K1); fluorescence polarisation; peptide; pH 7.5, 23 °C, KCl 100 mM, simple binding fit): 29300 nM

Excerpt of the above:
DNDPENRIAKKMLLEEIKANLS (ATRX 1264-1285 (Homo sapiens, UniProt P46100); sequence looked up)  Kd (DAXX; ITC; peptide; pH 7.5, 25 °C): 750 nM
ATATACACTACAAGCGACCGATATATTGATGCTTGCTCAAATAAATGTTGAGTAGGGATTCATATATCGGTCGCTTTTTTTGATTTAACAAAAAGGGAAAATGTATAAGGAATATGCATGACTACAGGCATCAGGGAATTCCCTGATTTTACATTATAATGTGATTCTTTTCACAAAAACAAAATGATTTGGTATACAATACGTGTGAAAGGGTTGGTAAATGTGAATGG (dsDNA)  Kd (rex 1-211 (Staphylococcus aureus, UniProt P60386); EMSA; double-stranded DNA, one strand shown; apparent): 270 nM
AAATCCACCAATCAACGCCTCCGTGATTGTCAGCAAT (dsDNA)  Kd (HapB/HapC/HapE/HapX HapX 24-158; SPR; double-stranded DNA, one strand shown; HapX on preformed CBC:DNA): 0.4 nM
